Measured values pooled from the literature.
Compare with care: the assays were run in different laboratories. Numbers after ± are the reported error.
B1: enzyme (Enterococcus faecalis, UniProt Q836M4); chain MEIHFEKVTSDNRKAVENLQVFAEQQAFIESMAENLKESDQFPEWESAGIYDGNQLIGYAMYGRWQDGRVWLDRFLIDQRFQGQGYGKAACRLLMLKLIEKYQTNKLYLSVYDTNSSAIRLYQQLGFVFNGELDTNGERVMEWTHQNK
B2: bglA S39T (Acetivibrio thermocellus, UniProt P26208); chain MSKITFPKDFIWGSATAAYQIEGAYNEDGKGESIWDRFTHTPGNIADGHTGDVACDHYHRYEEDIKIMKEIGIKSYRFSISWPRIFPEGTGKLNQKGLDFYKRLTNLLLENGIMPAITLYHWDLPQKLQDKGGWKNRDTTDYFTEYSEVIFKNLGDIVPIWFTHNEPGVVSLLGHFLGIHAPGIKDLRTSLEVSHNLLLSHGKAVKLFREMNIDAQIGIALNLSYHYPASEKAEDIEAAELSFSLAGRWYLDPVLKGRYPENALKLYKKKGIELSFPEDDLKLISQPIDFIAFNNYSSEFIKYDPSSESGFSPANSILEKFEKTDMGWIIYPEGLYDLLMLLDRDYGKPNIVISENGAAFKDEIGSNGKIEDTKRIQYLKDYLTQAHRAIQDGVNLKAYYLWSLLDNFEWAYGYNKRFGIVHVNFDTLERKIKDSGYWYKEVIKNNGF
B3: enzyme (Bacillus thuringiensis, UniProt P0CJ63); chain MTVKKLYFIPAGRCMLDHSSVNSALTPGKLLNLPVWCYLLETEEGPILVDTGMPESAVNNEGLFNGTFVEGQILPKMTEEDRIVNILKRVGYEPDDLLYIISSHLHFDHAGGNGAFTNTPIIVQRTEYEAALHREEYMKECILPHLNYKIIEGDYEVVPGVQLLYTPGHSPGHQSLFIETEQSGSVLLTIDASYTKENFEDEVPFAGFDPELALSSIKRLKEVVKKEKPIIFFGHDIEQEKSCRVFPEYI
B4: enzyme (UniProt I4BZH5); chain MIWPKATDILLAAQFLREKVRHTPIEKSLDLSDIAGGSVYLKWENLQPCGSFKIRGALNKMFHMSEEERERGVVTASSGNHAQGVAIAARMLNVKAVIFVPGVCPANKQRAIKRLGGDVVDLRVVGHLYDDAEQAARQLARSEGLTYVSSYEDHHIICGAGTVGLEMLLDVPDLDMLVVPAGGGGLISGIATIAKALSPGIRIVGVQSVASMPWVVSWQSGRVIDVTYSDSLADGLTGSIPQSLLDLARVRVDDFMAVTEDDIAKAIAFLHRRHHQIVEGAGAVGVAALLSGRVSAKGRRVGVVISGGNIDHEVLMNILEKVTL
UniProt Q9I4K6, sequence (whole entry, looked up): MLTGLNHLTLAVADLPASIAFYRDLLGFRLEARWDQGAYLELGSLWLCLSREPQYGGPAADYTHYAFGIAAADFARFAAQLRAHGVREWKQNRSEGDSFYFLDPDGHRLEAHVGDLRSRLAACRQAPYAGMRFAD
UniProt O31616, sequence (whole entry, looked up): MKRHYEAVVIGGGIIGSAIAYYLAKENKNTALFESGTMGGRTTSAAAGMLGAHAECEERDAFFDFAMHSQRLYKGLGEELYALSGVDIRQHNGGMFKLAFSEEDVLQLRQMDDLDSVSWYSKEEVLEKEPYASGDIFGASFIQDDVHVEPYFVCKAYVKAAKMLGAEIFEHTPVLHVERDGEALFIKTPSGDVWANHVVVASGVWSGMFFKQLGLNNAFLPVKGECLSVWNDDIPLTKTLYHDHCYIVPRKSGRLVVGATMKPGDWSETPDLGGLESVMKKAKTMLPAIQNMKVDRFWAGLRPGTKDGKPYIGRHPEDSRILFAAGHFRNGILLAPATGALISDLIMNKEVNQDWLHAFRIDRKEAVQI
UniProt Q75I93, sequence (whole entry, looked up): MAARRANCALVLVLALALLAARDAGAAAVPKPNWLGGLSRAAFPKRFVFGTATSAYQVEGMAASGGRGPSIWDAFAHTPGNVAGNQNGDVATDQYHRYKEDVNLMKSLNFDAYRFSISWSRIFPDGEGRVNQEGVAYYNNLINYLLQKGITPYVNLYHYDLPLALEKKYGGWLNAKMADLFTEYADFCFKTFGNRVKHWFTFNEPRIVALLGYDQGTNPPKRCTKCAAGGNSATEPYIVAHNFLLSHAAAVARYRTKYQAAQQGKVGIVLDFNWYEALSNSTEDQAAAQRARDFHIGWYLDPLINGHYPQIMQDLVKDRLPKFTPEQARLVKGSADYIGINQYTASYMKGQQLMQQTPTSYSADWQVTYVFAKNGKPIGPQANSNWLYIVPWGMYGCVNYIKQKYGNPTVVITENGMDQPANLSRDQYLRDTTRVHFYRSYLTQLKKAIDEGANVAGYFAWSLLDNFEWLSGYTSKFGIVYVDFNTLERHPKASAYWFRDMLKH

Substance	tested on	test	test system	conditions	scale	quantity	value
B1 (enzyme)	NCCCCNCCCN	steady-state kinetics	–	pH 8, 37 °C, with: AcCoA 1 mM	–	kcat/Km	1560 M⁻¹ s⁻¹
insulin human	–	refers to: KCNMA1 mRNA	uninfected mouse, brain	i.p., dose not given	reference: PBS	fold change	1.23
B2 (bglA S39T)	O=[N+]([O-])c1ccc(O[C@@H]2O[C@H](CO)[C@@H](O)[C@H](O)[C@H]2O)cc1	steady-state kinetics	–	pH 5.5, 60 °C	–	kcat/Km	32400 ± 2800 M⁻¹ s⁻¹
Cj1438c (Campylobacter jejuni, UniProt Q0P8H6)	NCCOP(=O)(O)O	steady-state kinetics	–	pH 8, 25 °C, apparent	–	kcat/Km	12000 ± 4000 M⁻¹ s⁻¹
fosA (Pseudomonas aeruginosa, UniProt Q9I4K6)	C[C@@H]1O[C@@H]1P(=O)(O)O	steady-state kinetics	–	–	–	kcat/Km	900000 ± 140000 M⁻¹ s⁻¹
enzyme (Bacillus subtilis, UniProt O31616)	O=C(O)CNCP(=O)(O)O	steady-state kinetics	–	pH 8, 25 °C	–	kcat/Km	13.1 M⁻¹ s⁻¹
rCR L34A (Lodderomyces parapsilosis)	CC(=O)c1ccc(Cl)cc1	steady-state kinetics	–	pH 7, 30 °C, with: NADH 0.5 mM	–	kcat/Km	13500 M⁻¹ s⁻¹
B3 (enzyme)	CCCC(=O)N[C@H]1CCSC1=O	steady-state kinetics	–	pH 8, with: CoCl2 0.2 mM, DTNB 2 mM	–	kcat/Km	96300 ± 18400 M⁻¹ s⁻¹
B4 (enzyme)	N=C(N)NCCC[C@H](N)C(=O)O	steady-state kinetics	–	pH 8, 30 °C	–	kcat/Km	26900 ± 900 M⁻¹ s⁻¹
fcl (Campylobacter jejuni, UniProt Q0P8I6)	Nc1nc2c(ncn2[C@@H]2O[C@H](COP(=O)(O)OP(=O)(O)O[C@H]3O[C@@H](CCO)C(=O)[C@@H](O)[C@@H]3O)[C@@H](O)[C@H]2O)c(=O)[nH]1	steady-state kinetics	–	pH 7.5, 25 °C, apparent	–	kcat/Km	33000 M⁻¹ s⁻¹
BGLU7 (Oryza sativa, UniProt Q75I93)	CC(C)(C#N)O[C@@H]1O[C@H](CO)[C@@H](O)[C@H](O)[C@H]1O	steady-state kinetics	–	pH 6, 30 °C, not purified	–	kcat/Km	1200 ± 510 M⁻¹ s⁻¹

Some of these lines once more:
Substance	tested on	test	test system	conditions	scale	quantity	value
fcl (Campylobacter jejuni, UniProt Q0P8I6)	Nc1nc2c(ncn2[C@@H]2O[C@H](COP(=O)(O)OP(=O)(O)O[C@H]3O[C@@H](CCO)C(=O)[C@@H](O)[C@@H]3O)[C@@H](O)[C@H]2O)c(=O)[nH]1	steady-state kinetics	–	pH 7.5, 25 °C, apparent	–	kcat/Km	33000 M⁻¹ s⁻¹
BGLU7 (Oryza sativa, UniProt Q75I93)	CC(C)(C#N)O[C@@H]1O[C@H](CO)[C@@H](O)[C@H](O)[C@H]1O	steady-state kinetics	–	pH 6, 30 °C, not purified	–	kcat/Km	1200 ± 510 M⁻¹ s⁻¹
